Measured values collected from several papers.
Lines come from different studies, so protocols differ. ± marks the error that the study gave.
Cell line: Jurkat

The IC50 of `C1=CCCC=CCC1.F[P-](F)(F)(F)(F)F.[Pt+][c]1ccccc1P(=Nc1ccccc1)(c1ccccc1)c1ccccc1` is reported as 0.53 ± 0.13 µM (cell viability, MTT; 24 h).
`CC1=CC2(C)C(=C(C)C3C4CC(C)CC(C)C4C4Oc5ccc(cc5)CC5(O)NC(=O)C(=C(O)C2C43)C5Nc2ncnc3c2ncn3C2OC(CO)C(O)C2O)C1C` (stereo not drawn) gave an IC50 of 4.4 µM (cell growth or viability, resazurin; 72 h).
With `O=C1c2cccc3cccc(c23)C12NC(Cc1ccc(O)cc1)C([N+](=O)[O-])C2c1cccc([N+](=O)[O-])c1` (stereo not drawn) the IC50 was 31.9 µM (cell growth or viability, MTT; 48 h).
For `O=C1c2cccc[c]2[Au-]([Cl])([Cl])[N+]1=P(c1ccccc1)(c1ccccc1)c1ccccc1`, the IC50 was 3.4 ± 0.5 µM (cell viability, MTT; 24 h).
With `CC(=O)Oc1cc2c(cc1C(C)C)C1(CC3C(C)(CN4C(=O)c5c(Cl)c(Cl)c(Cl)c(Cl)c5C4=O)CCCC23C)C23c4c5c6c7c8c9c(c%10c%11c2c2c4c4c%12c5c5c6c6c8c8c%13c9c9c%10c%10c%11c%11c2c2c4c4c%12c%12c5c5c6c8c6c8c%13c9c9c%10c%10c%11c2c2c4c4c%12c5c6c5c8c9c%10c2c45)C713` (stereo not drawn) the IC50 was over 30 µM (cell growth or viability, MTT; 48 h).
For `O=C1c2cccc3cccc(c23)C12NC(Cc1ccc(O)cc1)C([N+](=O)[O-])C2c1ccc(Cl)cc1` (stereo not drawn), the IC50 was 65.7 µM (cell growth or viability, MTT; 24 h).
For `Cc1ccc(C(C)C)cc1.O=C(N=P(c1ccccc1)(c1ccccc1)c1ccccc1)c1[c-]cccc1.[Cl-].[Ru+2]`, the IC50 was 2.39 ± 0.27 µM (cell viability, MTT; 24 h).
For `CC(=O)C=C(C)[O][Pd][c]1ccccc1C(=O)N=P12CN3CN(CN(C3)C1)C2`, the IC50 was 10.5 ± 1.8 µM (cytotoxicity, MTT; 24 h, 1% DMSO).
For `COc1ccc(C2C([N+](=O)[O-])C(Cc3ccc(O)cc3)NC23C(=O)c2cccc4cccc3c24)cc1` (stereo not drawn), the IC50 was 60.1 µM (cell growth or viability, MTT; 48 h).
The IC50 of `CN(C)C(=S)[S][Pd][c]1ccccc1C(=O)N=P12CN3CN(CN(C3)C1)C2` is reported as 142 ± 9 µM (cytotoxicity, MTT; 24 h, 1% DMSO).
`Cc1ccc(C2C([N+](=O)[O-])C(Cc3ccc(O)cc3)NC23C(=O)c2cccc4cccc3c24)cc1` (stereo not drawn) has an IC50 of 71.2 µM (cell growth or viability, MTT; 24 h).
`Cc1ccc(C(C)C)cc1.F[P-](F)(F)(F)(F)F.O=C(N=P(c1ccccc1)(c1ccccc1)c1ccccc1)c1ccccn1.[Cl-].[Ru+2]` gave an IC50 of 1.1 ± 0.14 µM (cell viability, MTT; 24 h).
With `CC[C@@H]1NC(=O)[C@H]([C@H](O)[C@H](C)Cc2nc3ccc(C(=O)OC)cc3[nH]2)N(C)C(=O)[C@H](C(C)C)N(C)C(=O)[C@H](CC(C)C)N(C)C(=O)[C@H](CC(C)C)N(C)C(=O)[C@@H](C)NC(=O)[C@H](C)NC(=O)[C@H](CC(C)C)N(C)C(=O)[C@H](C(C)C)NC(=O)[C@H](CC(C)C)N(C)C(=O)CN(C)C1=O` the IC50 was 10 µM (reporter gene, inhibitor, NFAT luciferase reporter).
`O=C1c2cccc3cccc(c23)C12NC(Cc1ccc(O)cc1)C([N+](=O)[O-])C2c1ccccc1` (stereo not drawn) gave an IC50 of 77.4 µM (cell growth or viability, MTT; 24 h).
`Cc1ccc(C(C)C)cc1.[Cl-].[Cl-].[Ru+2].c1ccc(P(=Nc2cccc3cccnc23)(c2ccccc2)c2ccccc2)cc1` has an IC50 of 0.9 ± 0.32 µM (cell viability, MTT; 24 h).

Some of these lines once more:
For `COc1ccc(C2C([N+](=O)[O-])C(Cc3ccc(O)cc3)NC23C(=O)c2cccc4cccc3c24)cc1` (stereo not drawn), the IC50 was 60.1 µM (cell growth or viability, MTT; 48 h).
